Published values pooled from the literature.
Parts stem from different laboratories: compare values within a part only. Substitutions count along the parent as printed.

Series 1
Target: Prothrombin, mature alpha-thrombin (F2, Homo sapiens, UniProt P00734)
Method: aptamer microarray, sandwich
Form: DNA with 2'F-ANA
Sample: in vitro
Tested at: 200 nM
Notes: whole 15-mer aptamer, many near background
Added: Cy3 exosite-II aptamer, 400 nM
Direction: higher = stronger binding
Sequence: GGTTGGTGTGGTTGG
| Modification | mean fluorescence intensity |
| --- | --- |
| 2'F-ANA at 2 3 4 6 7 8 9 12 14 | 296 a.u. |
| 2'F-ANA at 1 4 7 10 12 15 | 124 a.u. |
| 2'F-ANA at 1 2 7 9 14 | 53.6 a.u. |
| 2'F-ANA at 6 8 10 14 | 107 a.u. |
| 2'F-ANA at 1 2 3 5 6 9 10 11 | 56.8 a.u. |

Series 2
Target: FOSL1, bZIP domain (human)
Method: DHFR protein complementation
Sample: yeast
Notes: single substitutions, most at no-binding floor
Baseline: wild-type JUN-FOS pair
Direction: higher = stronger binding
Starting sequence: JUN, bZIP domain (human); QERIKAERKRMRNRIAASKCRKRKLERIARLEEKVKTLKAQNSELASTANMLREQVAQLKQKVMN; partner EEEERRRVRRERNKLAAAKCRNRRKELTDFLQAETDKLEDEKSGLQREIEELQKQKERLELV
| Change | binding fitness [natural log] |
| --- | --- |
| L38A | -1.27 |
| A29I | -0.56 |
| A49P | -1.43 |
| T37W | -0.562 |
| L31P | -1.36 |

Series 3
Target: CCND2, cyclin fold, Cln2 fusion (human)
Method: yeast growth competition, sequencing
Sample: yeast
Notes: weak parent motif
Baseline: not given
Direction: higher = stronger binding
Starting sequence: PKMYT1 docking peptide (human); SFEPRNLLSLFED
| Change | normalised enrichment score |
| --- | --- |
| SFEPRNLLHLFED [S9H] | 0.059 |
| SFEPRNLLSLFEC [D13C] | -0.0965 |
| SVEPRNLLSLFED [F2V] | -0.105 |
| SFEPRNYLSLFED [L7Y] | -0.0338 |
| SFEIRNLLSLFED [P4I] | -0.381 |
| SFEMRNLLSLFED [P4M] | 0.566 |
| SFEPRRLLSLFED [N6R] | 0.139 |

Single results of other studies
| Molecule | target | assay | system | setting | how to read | measurement | result |
| --- | --- | --- | --- | --- | --- | --- | --- |
| PhoQ, residues 284 288 289 292 302 303 AAQSYM | PhoP, residues 12 14 15 18 19 LHTVM (Escherichia coli, UniProt P23836) | Sort-seq, measured: YFP reporter | E. coli | PhoQ-PhoP variant library, added: 10 µM Mg2+ | baseline: high Mg2+ state, higher = stronger signaling | fold induction | 28.1 |

For quick reference, copied from above (series 1):
| Modification | mean fluorescence intensity |
| --- | --- |
| 2'F-ANA at 1 4 7 10 12 15 | 124 a.u. |
| 2'F-ANA at 1 2 7 9 14 | 53.6 a.u. |
